{"data": "Assay results of several laboratories", "note": "Lines come from different studies, so protocols differ. Values joined by “and” are separate records of one study, mostly repeats; a detail may differ. Numbers after ± are the reported error."}
{"Structure (SMILES)": "CC[C@H](C)[C@H](NC(=O)[C@H](CCCN)NC(=O)[C@H](CCCNC(=N)N)NC(=O)[C@@H]1CCCN1C(=O)[C@@H]1CCCN1C(=O)[C@H](CCCNC(=N)N)NC(=O)[C@@H]1CCCN1C(=O)[C@H](CCCNC(=N)N)NC(=O)[C@@H]1CCCN1C(=O)[C@H](CC(C)C)NC(=O)[C@H](Cc1ccc(O)cc1)NC(=O)[C@@H]1CCCN1C(=O)[C@@H]1CCCN1C(=O)[C@H](CCCCN)NC(=O)[C@H](CC(=O)O)NC(=O)[C@@H](N)C(C)C)C(=O)N[C@@H](Cc1ccc(O)cc1)C(=O)N[C@@H](CC(N)=O)C(=O)N[C@@H](CCCN)C(N)=O", "test": "cELISA, total compound", "system": "CD-1 mice, female, plasma", "setting": "subcutaneous, 4.34 µmol/kg, single dose", "endpoint": "elimination rate constant", "result": "0.016 min⁻¹"}
{"Structure (SMILES)": "Cc1ccc(N(C)C2(C)CN(C)C2)cc1C(=O)N[C@H](C)c1cc(-c2cnn(C)c2)nc2ccccc12", "tested on": "Vero E6", "setting": "31.25 µM", "endpoint": "viability", "result": "96.9% and 104% and 103%"}
{"Structure (SMILES)": "CSCC[C@H](NC(=O)CNC(=O)[C@H](CCCCN)NC(=O)[C@H](CC(C)C)NC(=O)[C@@H]1CCCN1C(=O)[C@H](CO)NC(=O)[C@H](Cc1c[nH]cn1)NC(=O)[C@H](Cc1c[nH]c2ccccc12)NC(=O)[C@H](CCCNC(=N)N)NC(=O)[C@H](CC(C)C)NC(=O)[C@H](CCCNC(=N)N)NC(=O)[C@H](Cc1c[nH]c2ccccc12)NC(=O)[C@H](CS)NC(=O)CCCCCNC(=O)CN1CCN(CC(=O)O)CCN(CC(=O)O)CCN(CC(=O)O)CC1)C(=O)O [copper-64 labelled]", "test": "PET imaging", "system": "BALB/c nude mice, tumor", "setting": "intravenous, dose not given, 30 h, Huh-7 tumour-bearing", "endpoint": "tissue uptake", "result": "3.8 ± 0.29 %ID/g"}
{"Structure (SMILES)": "O=C(c1cc(Cc2n[nH]c(=O)c3ccccc23)ccc1F)N1CC(CNC2CC2)C1", "system": "Wistar Han rat, male, blood", "setting": "oral, 15 mg/kg daily, 4 weeks", "endpoint": "haematocrit", "result": "52.4 ± 3.3%"}
{"Structure (SMILES)": "COc1cnc2cccc(N3CCc4c(cc(Cn5ccnc5)cc4-c4cn(C)nc4C(F)(F)F)C3=O)c2c1", "system": "CD-1 mice", "setting": "intraperitoneal, 50 mg/kg once daily, day 2", "endpoint": "body weight", "result": "28.2 ± 0.7 g"}
{"Structure (SMILES)": "CC[C@H](C)[C@H](NC(=O)[C@H](Cc1ccc(O)cc1)NC(=O)[C@@H](NC(=O)[C@H](CCCNC(=N)N)NC(=O)[C@@H](N)CC(=O)O)C(C)C)C(=O)N[C@@H](Cc1c[nH]cn1)C(=O)N1CCC[C@H]1C(=O)O", "system": "Beagle dog, plasma", "setting": "subcutaneous, 10 mg/kg/day, day 27", "endpoint": "elimination rate constant", "result": "0.03 min⁻¹"}
{"Structure (SMILES)": "CN1Cc2cc(Cl)ccc2-n2c(nnc2C2CCN(c3cccc([18F])n3)CC2)C1", "system": "C57BL/6 mouse male, testis", "setting": "intravenous, dose not given, 5 min, added: blocking agent 10 mg/kg", "endpoint": "tissue uptake", "result": "1.48 ± 0.67 %ID/g"}
{"Structure (SMILES)": "CCn1ccc(-c2cc([C@@H](C)NC(=O)c3cc(OCCN(C)C)ccc3C)c3ccccc3n2)n1", "tested on": "Vero E6", "setting": "31.25 µM", "endpoint": "viability", "result": "47.5% and 71.5% and 55.5%"}
{"Structure (SMILES)": "O=C1NC2(CC2)COc2ncc(F)cc2[C@H]2COCCN2c2ccn3ncc1c3n2", "system": "Sprague-Dawley rat, female, serum", "setting": "oral, 10 mg/kg/day, end of recovery, 4-week subacute toxicity", "endpoint": "serum LDH activity", "result": "591 ± 213 U/L"}
{"Structure (SMILES)": "CC(C)(CCCC/C=C/CCCCCC(C)(C)C(=O)O)C(=O)O", "system": "ICR mice, both sexes", "setting": "oral, dose not given, 0.5 h", "endpoint": "plasma concentration", "result": "20300 ng/mL"}
{"Structure (SMILES)": "CC[C@H](C)[C@H](NC(=O)[C@H](CCCCN)NC(=O)CNC(=O)[C@@H](NC(=O)[C@H](Cc1c[nH]cn1)NC(=O)[C@H](Cc1c[nH]cn1)NC(=O)[C@@H](NC(=O)CNC(=O)[C@H](Cc1c[nH]cn1)NC(=O)[C@H](Cc1ccccc1)NC(=O)[C@H](CC(C)C)NC(=O)[C@H](CC(C)C)NC(=O)[C@H](CCCNC(=N)N)NC(=O)[C@H](Cc1ccccc1)NC(=O)[C@@H](N)Cc1ccccc1)C(C)C)C(C)C)C(=O)N[C@@H](CCCCN)C(=O)N1CCC[C@H]1C(=O)N[C@@H](CCCNC(=N)N)C(=O)N[C@@H](C)C(N)=O", "system": "zebrafish embryos 28 hpf, E3 medium", "setting": "1 h", "endpoint": "acute toxic concentration", "result": "25 µM"}
{"Structure (SMILES)": "CCCCCCCCCCCCCCCC(=O)N[C@@H](CCC(=O)NCCOCCOCCC(=O)NCCOCCOCCC(=O)NCCCC[C@H](NC(=O)[C@H](CC(=O)O)NC(=O)[C@H](CC(C)C)NC(=O)[C@H](Cc1ccc(O)cc1)NC(=O)[C@H](CCCCN)NC(=O)[C@H](CO)NC(=O)[C@H](Cc1ccc(O)cc1)NC(=O)[C@H](CC(=O)O)NC(=O)[C@H](CO)NC(=O)[C@@H](NC(=O)[C@H](Cc1ccccc1)NC(=O)[C@@H](NC(=O)CNC(=O)[C@H](CCC(N)=O)NC(=O)[C@@H](CO)NC(=O)[C@@H](N)Cc1c[nH]cn1)[C@@H](C)O)[C@@H](C)O)C(=O)N[C@@H](CCCNC(=N)N)C(=O)N[C@@H](CCCNC(=N)N)C(=O)N[C@@H](C)C(=O)N[C@@H](CCC(N)=O)C(=O)N[C@@H](CC(=O)O)C(=O)N[C@@H](Cc1ccccc1)C(=O)N[C@H](C(=O)N[C@@H](CCC(N)=O)C(=O)N[C@@H](Cc1c[nH]c2ccccc12)C(=O)N[C@@H](CC(C)C)C(=O)N[C@@H](CC(C)C)C(=O)N[C@@H](CC(N)=O)C(=O)N[C@H](C(=O)NCC(=O)NCC(=O)N1CCC[C@H]1C(=O)N[C@@H](CO)C(=O)N[C@@H](CO)C(=O)NCC(=O)N[C@@H](C)C(=O)N1CCC[C@H]1C(=O)N1CCC[C@H]1C(=O)N1CCC[C@H]1C(=O)N[C@@H](CO)C(N)=O)[C@@H](C)O)C(C)C)C(=O)O", "system": "rhesus monkey, plasma", "setting": "subcutaneous, 60 µg/kg", "endpoint": "bioavailability", "result": "27.5%"}
{"Structure (SMILES)": "N=C(N)NCCC[C@H](NC(=O)[C@H](CCCNC(=N)N)NC(=O)[C@H](CCCNC(=N)N)NC(=O)[C@H](CCC(N)=O)NC(=O)[C@H](CCCNC(=N)N)NC(=O)[C@H](CCCNC(=N)N)NC(=O)[C@H](CCCCN)NC(=O)[C@H](CCCCN)NC(=O)[C@H](CCCNC(=N)N)NC(=O)CNC(=O)[C@H](Cc1ccc(O)cc1)NC(=O)[C@H](Cc1ccccc1)NC(=O)[C@H](Cc1ccccc1)NC(=O)[C@H](Cc1ccccc1)NC(=O)OCC1c2ccccc2-c2ccccc21)C(=O)O", "system": "C57BL/6 mice", "setting": "intraperitoneal, 5 mg/kg, 24 h", "how to read": "direction not given", "endpoint": "health score", "result": 5}
{"Structure (SMILES)": "C/C(=N\\OCCCN1CCCCC1)c1ccc(C(F)(F)F)cc1", "system": "mouse, plasma", "setting": "oral, 75 mg/kg twice daily, day 7", "endpoint": "Cmax", "result": "982 ± 216 ng/mL"}
{"Structure (SMILES)": "CN(C)CCc1c[nH]c2cccc(/N=N/c3ccccc3)c12", "test": "light irradiation", "system": "solution", "setting": "added: light 530 nm", "endpoint": "trans isomer at photostationary state", "result": "90%"}
{"note": "For quick reference, copied from above:"}
{"Structure (SMILES)": "CCCCCCCCCCCCCCCC(=O)N[C@@H](CCC(=O)NCCOCCOCCC(=O)NCCOCCOCCC(=O)NCCCC[C@H](NC(=O)[C@H](CC(=O)O)NC(=O)[C@H](CC(C)C)NC(=O)[C@H](Cc1ccc(O)cc1)NC(=O)[C@H](CCCCN)NC(=O)[C@H](CO)NC(=O)[C@H](Cc1ccc(O)cc1)NC(=O)[C@H](CC(=O)O)NC(=O)[C@H](CO)NC(=O)[C@@H](NC(=O)[C@H](Cc1ccccc1)NC(=O)[C@@H](NC(=O)CNC(=O)[C@H](CCC(N)=O)NC(=O)[C@@H](CO)NC(=O)[C@@H](N)Cc1c[nH]cn1)[C@@H](C)O)[C@@H](C)O)C(=O)N[C@@H](CCCNC(=N)N)C(=O)N[C@@H](CCCNC(=N)N)C(=O)N[C@@H](C)C(=O)N[C@@H](CCC(N)=O)C(=O)N[C@@H](CC(=O)O)C(=O)N[C@@H](Cc1ccccc1)C(=O)N[C@H](C(=O)N[C@@H](CCC(N)=O)C(=O)N[C@@H](Cc1c[nH]c2ccccc12)C(=O)N[C@@H](CC(C)C)C(=O)N[C@@H](CC(C)C)C(=O)N[C@@H](CC(N)=O)C(=O)N[C@H](C(=O)NCC(=O)NCC(=O)N1CCC[C@H]1C(=O)N[C@@H](CO)C(=O)N[C@@H](CO)C(=O)NCC(=O)N[C@@H](C)C(=O)N1CCC[C@H]1C(=O)N1CCC[C@H]1C(=O)N1CCC[C@H]1C(=O)N[C@@H](CO)C(N)=O)[C@@H](C)O)C(C)C)C(=O)O", "system": "rhesus monkey, plasma", "setting": "subcutaneous, 60 µg/kg", "endpoint": "bioavailability", "result": "27.5%"}
